Assay results pooled from the literature.
Each line is one published result; not all experiments were run side by side. ± gives the spread as reported.

Amino acid sequences for entries named in this document (tags omitted).
UniProt Q9Y2R2, whole entry: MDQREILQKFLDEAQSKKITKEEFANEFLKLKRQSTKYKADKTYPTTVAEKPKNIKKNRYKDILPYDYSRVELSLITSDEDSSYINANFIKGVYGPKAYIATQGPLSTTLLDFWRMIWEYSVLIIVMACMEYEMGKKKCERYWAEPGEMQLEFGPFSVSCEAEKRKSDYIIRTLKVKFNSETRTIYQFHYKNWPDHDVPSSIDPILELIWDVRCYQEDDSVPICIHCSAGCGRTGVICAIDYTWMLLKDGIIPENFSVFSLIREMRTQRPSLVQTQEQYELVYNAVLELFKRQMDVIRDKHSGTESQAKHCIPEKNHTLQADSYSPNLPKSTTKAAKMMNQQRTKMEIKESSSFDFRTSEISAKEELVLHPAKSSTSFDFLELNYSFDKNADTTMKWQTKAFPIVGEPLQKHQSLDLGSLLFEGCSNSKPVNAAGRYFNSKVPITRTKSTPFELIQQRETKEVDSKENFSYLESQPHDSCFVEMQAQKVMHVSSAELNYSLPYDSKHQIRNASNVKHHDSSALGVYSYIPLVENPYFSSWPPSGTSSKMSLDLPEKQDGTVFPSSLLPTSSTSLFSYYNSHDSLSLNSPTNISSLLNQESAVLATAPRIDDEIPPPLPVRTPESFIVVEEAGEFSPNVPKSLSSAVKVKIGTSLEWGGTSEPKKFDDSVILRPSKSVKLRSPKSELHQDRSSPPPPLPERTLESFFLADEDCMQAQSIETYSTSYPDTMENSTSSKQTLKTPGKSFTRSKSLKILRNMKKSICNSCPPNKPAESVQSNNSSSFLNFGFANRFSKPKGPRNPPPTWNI
UniProt Q9UIG0, whole entry: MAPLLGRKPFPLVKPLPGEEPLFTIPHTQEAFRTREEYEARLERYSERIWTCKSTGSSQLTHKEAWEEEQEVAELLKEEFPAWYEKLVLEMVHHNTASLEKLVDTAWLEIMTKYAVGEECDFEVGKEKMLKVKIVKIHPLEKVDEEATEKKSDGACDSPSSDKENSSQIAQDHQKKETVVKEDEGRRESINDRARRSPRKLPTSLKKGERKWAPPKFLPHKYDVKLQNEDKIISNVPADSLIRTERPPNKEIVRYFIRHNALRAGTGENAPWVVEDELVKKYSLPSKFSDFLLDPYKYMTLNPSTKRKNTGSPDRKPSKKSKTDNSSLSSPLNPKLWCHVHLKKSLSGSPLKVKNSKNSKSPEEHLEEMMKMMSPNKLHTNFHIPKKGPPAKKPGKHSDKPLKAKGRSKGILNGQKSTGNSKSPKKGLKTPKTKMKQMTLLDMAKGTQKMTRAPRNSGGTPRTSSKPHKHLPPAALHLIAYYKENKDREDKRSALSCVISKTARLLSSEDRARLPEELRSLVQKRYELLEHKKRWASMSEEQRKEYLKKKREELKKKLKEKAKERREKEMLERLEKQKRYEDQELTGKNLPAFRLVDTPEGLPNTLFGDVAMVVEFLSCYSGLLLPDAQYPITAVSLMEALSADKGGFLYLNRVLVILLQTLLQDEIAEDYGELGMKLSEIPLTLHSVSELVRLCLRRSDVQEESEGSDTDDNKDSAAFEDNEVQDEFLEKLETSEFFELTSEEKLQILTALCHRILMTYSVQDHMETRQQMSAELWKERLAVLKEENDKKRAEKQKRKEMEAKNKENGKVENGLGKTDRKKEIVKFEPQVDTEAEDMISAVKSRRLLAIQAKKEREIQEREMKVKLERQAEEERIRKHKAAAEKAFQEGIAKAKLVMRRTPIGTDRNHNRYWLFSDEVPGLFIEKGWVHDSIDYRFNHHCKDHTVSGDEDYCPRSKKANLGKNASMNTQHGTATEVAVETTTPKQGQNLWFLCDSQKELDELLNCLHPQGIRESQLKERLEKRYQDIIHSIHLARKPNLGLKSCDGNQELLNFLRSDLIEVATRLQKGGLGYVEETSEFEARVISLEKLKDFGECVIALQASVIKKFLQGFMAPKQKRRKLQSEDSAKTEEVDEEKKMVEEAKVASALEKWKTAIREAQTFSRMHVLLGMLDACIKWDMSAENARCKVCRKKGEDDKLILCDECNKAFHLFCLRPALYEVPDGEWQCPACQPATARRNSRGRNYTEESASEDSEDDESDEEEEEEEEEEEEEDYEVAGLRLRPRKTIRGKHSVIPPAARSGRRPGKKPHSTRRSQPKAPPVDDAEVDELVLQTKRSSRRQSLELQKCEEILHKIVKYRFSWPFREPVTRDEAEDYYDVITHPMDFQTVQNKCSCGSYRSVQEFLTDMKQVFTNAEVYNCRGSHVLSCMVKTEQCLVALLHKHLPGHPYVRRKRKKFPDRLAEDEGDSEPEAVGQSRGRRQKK
UniProt Q9Y2H9, whole entry: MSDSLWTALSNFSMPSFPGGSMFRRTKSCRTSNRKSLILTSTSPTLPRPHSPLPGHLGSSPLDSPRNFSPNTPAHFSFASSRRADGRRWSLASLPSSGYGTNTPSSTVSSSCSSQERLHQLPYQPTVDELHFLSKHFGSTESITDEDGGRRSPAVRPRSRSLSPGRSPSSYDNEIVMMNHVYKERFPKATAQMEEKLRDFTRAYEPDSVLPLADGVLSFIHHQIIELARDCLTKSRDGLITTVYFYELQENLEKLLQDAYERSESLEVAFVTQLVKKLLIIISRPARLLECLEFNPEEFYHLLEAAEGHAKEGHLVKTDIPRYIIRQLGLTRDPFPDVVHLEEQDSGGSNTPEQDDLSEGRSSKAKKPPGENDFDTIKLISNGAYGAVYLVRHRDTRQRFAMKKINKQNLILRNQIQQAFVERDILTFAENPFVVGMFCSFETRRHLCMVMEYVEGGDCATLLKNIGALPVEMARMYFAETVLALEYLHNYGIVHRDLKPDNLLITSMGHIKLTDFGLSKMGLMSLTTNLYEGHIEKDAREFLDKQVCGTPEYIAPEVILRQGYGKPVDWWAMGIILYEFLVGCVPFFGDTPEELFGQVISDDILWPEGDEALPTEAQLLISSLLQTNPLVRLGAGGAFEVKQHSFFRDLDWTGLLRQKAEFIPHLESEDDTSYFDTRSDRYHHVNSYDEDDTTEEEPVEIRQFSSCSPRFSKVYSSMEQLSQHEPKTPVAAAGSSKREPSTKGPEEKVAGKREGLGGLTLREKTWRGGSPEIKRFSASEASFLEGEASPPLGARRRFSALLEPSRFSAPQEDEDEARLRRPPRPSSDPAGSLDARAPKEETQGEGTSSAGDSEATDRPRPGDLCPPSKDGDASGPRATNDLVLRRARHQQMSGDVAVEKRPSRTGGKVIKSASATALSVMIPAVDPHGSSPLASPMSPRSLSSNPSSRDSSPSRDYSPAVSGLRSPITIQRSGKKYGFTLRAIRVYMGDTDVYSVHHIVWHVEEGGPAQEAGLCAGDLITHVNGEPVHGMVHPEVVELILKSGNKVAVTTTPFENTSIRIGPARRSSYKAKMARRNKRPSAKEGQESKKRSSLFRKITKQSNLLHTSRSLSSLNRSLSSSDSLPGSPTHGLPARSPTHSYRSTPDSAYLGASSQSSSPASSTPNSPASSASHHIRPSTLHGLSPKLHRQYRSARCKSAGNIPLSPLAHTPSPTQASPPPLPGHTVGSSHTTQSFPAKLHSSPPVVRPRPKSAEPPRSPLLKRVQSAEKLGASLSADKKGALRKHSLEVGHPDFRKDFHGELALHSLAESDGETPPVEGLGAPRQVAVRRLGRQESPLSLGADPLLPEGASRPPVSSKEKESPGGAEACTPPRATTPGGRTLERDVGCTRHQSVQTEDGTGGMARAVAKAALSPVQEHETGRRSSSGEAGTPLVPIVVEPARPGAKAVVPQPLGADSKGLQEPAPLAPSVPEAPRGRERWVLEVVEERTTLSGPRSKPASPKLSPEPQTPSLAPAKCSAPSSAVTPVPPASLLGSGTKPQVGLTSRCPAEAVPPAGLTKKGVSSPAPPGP
UniProt Q16539, whole entry: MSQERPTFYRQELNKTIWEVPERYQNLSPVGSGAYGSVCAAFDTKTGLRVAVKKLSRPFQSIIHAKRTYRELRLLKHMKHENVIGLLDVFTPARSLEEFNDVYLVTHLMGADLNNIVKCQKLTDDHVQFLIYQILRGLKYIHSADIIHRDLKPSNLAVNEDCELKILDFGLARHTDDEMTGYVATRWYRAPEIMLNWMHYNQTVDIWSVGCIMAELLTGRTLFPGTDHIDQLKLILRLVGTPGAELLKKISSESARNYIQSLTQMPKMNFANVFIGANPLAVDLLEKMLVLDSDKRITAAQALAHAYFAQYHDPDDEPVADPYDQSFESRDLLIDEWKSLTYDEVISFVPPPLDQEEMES

Structure (SMILES)	tested on	assay	system	conditions	how to read	measurement	value
Nc1c(C(=O)Nc2c(F)cc(F)cc2Br)sc2nc3c(cc12)CCC3			nude mice, H1299 xenograft, tumour tissue	10 mg/kg/day		copper accumulation	~20%
Cc1c(O)cc2c(c1C)O[C@](C)(CCCC(C)C)CC2		refers to: MDM2, IKKα	athymic nude mouse, PC-3-luc xenograft, tumour	intraperitoneal, 50 mg/kg daily, 21 days		phosphorylation	decreased
COc1cccc(Cc2c(C)c(C)nn(CC(=O)Nc3ccc(Br)cc3)c2=O)c1		incapacitance test	rat, CFA-induced arthritis	oral, 30 mg/kg, day 14, 15 to 60 min		weight bearing difference	48.1 ± 1.05 g
COc1cc(CC(=O)NCC(NC(=O)C(CCCNC(=O)c2cccc(I)c2)NC(=O)C(Cc2ccc(C(F)(F)P(=O)(O)O)cc2)NC(=O)c2ccc(C)c(Br)c2)C(N)=O)ccc1O (stereo not drawn)	Tyrosine-protein phosphatase non-receptor type 22 (PTPN22, Homo sapiens, UniProt Q9Y2R2)	enzyme activity		10 µM		inhibition	no inhibition
O=C1C=C(NCCc2cc(Br)c(O)c(Br)c2)C(=O)c2ncccc21			BALB/c mice, K7M2 lung metastasis, lung	dose not given		metastatic foci number	decreased
CC[C@@H]1C(=O)N(C)c2cnc(Nc3ccc(C(=O)NC4CCN(C)CC4)cc3OC)nc2N1C1CCCC1	Tyrosine-protein kinase BAZ1B (BAZ1B, Homo sapiens, UniProt Q9UIG0)			10 µM		delta Tm	0.03 ± 0.15 °C
O=C(/C=C/c1nc2ccccc2[nH]1)c1c(-c2ccccc2)c2cc(Cl)ccc2[nH]c1=O			nude mouse, UACC-903 xenograft	oral gavage, 100 mg/kg, 3 times weekly	relative to: vehicle	tumour size reduction	> 2 fold
COc1ccc(OC[C@H]2c3cccn3CC(=O)N2Cc2cccc(F)c2)cc1			CA1 stratum radiatum interneurons, mouse, hippocampal slice	10 µM	relative to: baseline	NMDAR EPSC increase	~50%
Cc1ccc([C@H](CC(=O)O)NC(=O)Nc2c(O)c(C)cn(Cc3ccccc3Cl)c2=O)cc1		refers to: hCD45+ hCD19+	LAX7R xenograft, NSG mouse, peripheral blood	60 mg/kg, 36 h, 0.5% leukemic cells at start	relative to: PBS	B-ALL cells	decreased
CCCCCCCCCCCCCC=C[C@@H](O)[C@H](CO[C@@H]1O[C@H](CO)[C@@H](O[C@@H]2O[C@H](CO)[C@H](O)[C@H](O[C@]3(C(=O)O)C[C@H](O)[C@@H](NC(C)=O)[C@H]([C@H](O)[C@@H](CO)O[C@]4(C(=O)O)C[C@H](O)[C@@H](NC(C)=O)[C@H]([C@H](O)[C@H](O)CO)O4)O3)[C@H]2O)[C@H](O)[C@H]1O)NC(=O)CCCCCCCCCCCCCCCCC		refers to: IFN-γ	C57BL/6 mouse, serum	intravenous, with: α-GalCer 1 µg		half-maximal inhibitory dose	0.3 µg
Fc1cccc(-n2cnc3c(NCc4nc5cc(Cl)ccc5[nH]4)nc(N4CCNCC4)nc32)c1	Microtubule-associated serine/threonine-protein kinase 1 (MAST1, Homo sapiens, UniProt Q9Y2H9)	KINOMEscan competition binding		10 µM	relative to: control	remaining binding	6.2%
O=C(Nc1cccnn1)N1CC(Oc2ccc(-c3ccccc3F)cn2)C1		refers to: plasma AEA, OEA and PEA	human, plasma	oral, at maximum increase in endocannabinoids, repeated dosing		plasma concentration of compound	≥ 300 ng/mL
C[C@H]1CCCN1Cc1cc2cnc(NC(=O)c3ccc4c(cnn4C)c3)cc2[nH]1			MV4;11 cells, NSG mouse, disseminated xenograft, peripheral blood	dose not given, day 49 post transplantation		human CD45+ leukaemia cells	0 to 1.6%
CCN1CCN(Cc2ccc(NC(=O)c3ccc(C)c(Oc4ncnc5cc(OC)c(OC)cc45)c3)cc2C(F)(F)F)CC1	Mitogen-activated protein kinase 14 (MAPK14, Homo sapiens, UniProt Q16539)	KINOMEscan competition binding		1.0 µM		residual probe binding	0%
Cc1cccc(NC(=O)c2nn(Cc3cnc[nH]3)c3c2CN(C(=O)c2ccc[nH]2)CC3)c1	human IDH1 R132H AML cells	granulocytic differentiation, flow cytometry		3 µM, 6 to 7 days	relative to: DMSO	fold change CD15+ cells	1.2 ± 0.3 fold
